{"data": "Results of several laboratories", "note": "Compare with care: the assays were run in different laboratories. Values joined by “and” are separate records of one study, mostly repeats; a detail may differ. ± gives the spread as reported."}
{"Structure (SMILES)": "CSCCNc1nc(SCCC(F)(F)F)nc2c1ncn2[C@@H]1O[C@H](COP(=O)(O)OP(=O)(O)C(Cl)(Cl)P(=O)(O)O)[C@@H](O)[C@H]1O", "assay": "platelet aggregation, light transmission aggregometry", "system": "human patients, platelet-rich plasma", "setting": "dose not given, 30 min, inhibition threshold 90%, with: ADP 5 µM", "endpoint": "patients with inhibition above threshold", "value": "7.5%"}
{"Structure (SMILES)": "O[C@H]1CCCN[C@@H]1CCCn1cnc2c(Cl)c(Cl)ccc21", "assay": "ELISA, refers to: Pro-C6", "system": "healthy human volunteers, serum", "setting": "intraduodenal, 25 mg twice daily, day 14, multiple ascending dose", "endpoint": "AUC(0-tau)", "value": "92.9 ng·h/mL"}
{"Structure (SMILES)": "Cn1nnc2c(C(N)=O)ncn2c1=O", "system": "mouse subcutaneous GBM PDX sample D", "setting": "subcutaneous, dose not given", "endpoint": "T/C ratio", "value": "42%"}
{"Structure (SMILES)": "COc1ccc(-c2cncc(N[C@@H](C)c3cccc(NC(=O)c4cncc(C)c4)c3)n2)cc1OC", "assay": "refers to: rno-miR-410-3p", "system": "rat SU5416/hypoxia model, lung", "setting": "dose not given", "scale": "reference: SU5416/hypoxia vehicle", "endpoint": "fold change", "value": 3.5}
{"Structure (SMILES)": "Cc1noc(C)c1-c1cc(C(O)(c2ccccn2)c2ccccn2)c2nc(C3CC3)[nH]c2c1", "assay": "refers to: HEXIM1 expression", "system": "human, peripheral blood", "setting": "4 mg, day 1, 1599 study", "endpoint": "maximum induction", "value": "61.4%"}
{"Structure (SMILES)": "C[C@H]1C[C@H]2CSC(N)=N[C@@]2(c2nc(NC(=O)c3ccc(OC(F)F)cn3)cs2)CO1", "assay": "refers to: Aβx-40", "system": "healthy adults, plasma", "setting": "200 mg single dose, 48 h post-dose", "scale": "reference: placebo", "endpoint": "percent change from baseline", "value": "-70%"}
{"Structure (SMILES)": "O=C(O)CNC(=O)Cc1ccccc1", "system": "ventricular cardiomyocytes, C57BL/6 mouse", "setting": "dose not given, 0.68 s", "endpoint": "sarcomere length", "value": "1.72 µm"}
{"Structure (SMILES)": "Cn1cc(Nc2nccc(-c3ccc4c(c3)CN(C3COC3)CC[C@H]4NC(=O)c3cn(C(C)(C)C)nn3)n2)cn1", "assay": "refers to: Aryl Hydrocarbon Receptor Signaling", "system": "splenic B cells, mouse", "setting": "in vivo, 30 mg/kg, IgD-activated B cells", "scale": "reference: vehicle, positive = activation", "endpoint": "pathway activation z-score", "value": -0.243}
{"Structure (SMILES)": "Cc1c(C)n(Cc2cccc(OC(C)(C)C(=O)O)c2)c2ccc(C(=O)N[C@@H](C)c3ccc(C(C)(C)C)cc3)cc12", "system": "C57BL/6 mice, diet-induced obese, proximal tibia", "setting": "dose not given", "endpoint": "marrow fat volume/total volume", "value": "0.1 ± 0.06%"}
{"Structure (SMILES)": "N#Cc1ccn2c(-c3ccncc3)c(-c3ccc(F)cc3)nc2c1", "assay": "kinase binding, competitor, MIB/MS competition, refers to: PBS2", "system": "Candida albicans cell lysate", "setting": "1 µM", "scale": "reference: DMSO", "endpoint": "log2 fold change", "value": -0.223}
{"Structure (SMILES)": "NC/C(=C\\F)COc1cccc(Cn2c(=S)[nH]c(=O)c3[nH]cnc32)c1", "system": "mouse, unilateral ureteral obstruction, right kidney (control)", "setting": "dose not given", "endpoint": "fibrosis area", "value": "1.06% and 1.05% and 0.8% and 0.99% and 1.22% and 1.92%"}
{"Structure (SMILES)": "O=C1N(Cc2ccccc2Cl)c2ccccc2C12NN=C(c1ccccc1)S2 (stereo not drawn)", "system": "SK-BR-3 xenograft, mouse", "setting": "intravenous, 952 mg/kg twice daily, subcutaneous xenograft", "scale": "reference: vehicle", "endpoint": "T/C", "value": "72%"}
{"Structure (SMILES)": "C[C@@H](O)CCOC(=O)C[C@@H](C)O", "assay": "refers to: C8:1 acylcarnitine", "system": "human, plasma", "setting": "60 min, log2-transformed values", "endpoint": "metabolite level", "value": "-1.91 ± 0.9 µmol/L"}
{"Structure (SMILES)": "N#Cc1ccc2c(c1)[C@H]1CCCN(C(=O)c3ccc4[nH]cnc4c3)[C@H]1C2", "system": "human clinical trial", "setting": "oral, 240 mg once daily, 28 d", "scale": "reference: placebo", "endpoint": "systolic blood pressure change", "value": "-4.1 mmHg"}
{"Structure (SMILES)": "Cc1ccc(NC(=O)c2ccnc(C(F)(F)F)c2)cc1-c1cc(OCCO)nc(N2CCOCC2)c1", "system": "MAPK-altered advanced solid tumour patients", "setting": "dose not given, single-agent dose escalation", "endpoint": "progressive disease", "value": "41.4%"}
{"Structure (SMILES)": "NCC(=O)Nc1cncc(-c2nn3c(=O)cc(N4CCNCC4)nc3s2)c1", "assay": "ADP-induced platelet aggregation, light transmission aggregometry", "system": "human stable CAD patients on aspirin, platelets ex vivo", "setting": "0.05 mg/kg, 360 min post dose, with: 20 µM ADP", "scale": "reference: placebo difference", "endpoint": "inhibition of platelet aggregation", "value": "4.63%"}
{"Structure (SMILES)": "CC(C)C[C@@H](NC(=O)[C@H](C)NC(=O)CNC(=O)[C@@H](NC=O)C(C)C)C(=O)N[C@@H](C)C(=O)N[C@@H](C(=O)N[C@H](C(=O)N[C@@H](C(=O)N[C@@H](Cc1c[nH]c2ccccc12)C(=O)N[C@H](CC(C)C)C(=O)N[C@@H](Cc1ccc2cc[nH]c2c1)C(=O)N[C@H](CC(C)C)C(=O)N[C@@H](Cc1c[nH]c2ccccc12)C(=O)N[C@H](CC(C)C)C(=O)N[C@@H](Cc1c[nH]c2ccccc12)C(=O)NCCO)C(C)C)C(C)C)C(C)C", "assay": "H+/Na+ transport, pyranine pH-gradient", "system": "EYPC/EYPG LUVs 19:1", "endpoint": "EC50", "value": "4.07 ± 0.96 nM"}
{"Structure (SMILES)": "Cn1cc([C@H]2C[C@H]3CSC(N)=N[C@@]3(c3ccc(F)cc3F)CO2)cn1", "assay": "refers to: Aβx-40", "system": "wild-type mouse, brain", "setting": "subcutaneous, 50 mg/kg, 3 h", "endpoint": "brain Aβ40 level", "value": "1.31 ng/g"}
{"note": "Some of these lines once more:"}
{"Structure (SMILES)": "COc1ccc(-c2cncc(N[C@@H](C)c3cccc(NC(=O)c4cncc(C)c4)c3)n2)cc1OC", "assay": "refers to: rno-miR-410-3p", "system": "rat SU5416/hypoxia model, lung", "setting": "dose not given", "scale": "reference: SU5416/hypoxia vehicle", "endpoint": "fold change", "value": 3.5}
